Measured values gathered from unrelated publications.
Compare with care: the assays were run in different laboratories. ± marks the error that the study gave. ≈ marks a conversion by molar mass, not a printed value.

CCCCC1(CCCC)CN(c2ccccc2)c2cc(SC)c(OCC(=O)N[C@@H](C(=O)NCC(=O)O)c3ccccc3)cc2S(=O)(=O)C1  serum HDL-C (item: HDL cholesterol; human, serum; 10 mg once daily, day 11): 47.1 mg/dL
CC(C)(C)[C@]1(O)CCN2C[C@H]3c4ccccc4CCc4cccc(c43)[C@@H]2C1  IC50 (Plasmodium falciparum; 3D7): 3.16 µM
Nc1ccc(O)c(C(=O)O)c1  body weight reduction (mouse, DSS-induced colitis; oral, 100 mg/kg daily, day 8): -16.1%
C[N+](C)(C)CCOP(=O)(O)OP(=O)([O-])OC[C@H]1O[C@@H](n2ccc(N)nc2=O)[C@H](O)[C@@H]1O  log2 fold change (binding, MIDAS equilibrium dialysis LC-MS; A2AR-BRIL thermostabilized; concentration not given; baseline: no-protein control): -0.223
CC[C@H](C)[C@@H]1NC(=O)[C@@H]2CCCN2C(=O)[C@H](CC(C)C)NC(=O)[C@H](CC(C)C)NC(=O)CNC(=O)[C@@H](NC(=O)[C@@H](NC(=O)[C@H](CC(=O)O)NC(=O)CNC(=O)[C@@H](NC(=O)[C@H](C)NC(=O)CNC(=O)[C@H](CCCCN)NC(=O)[C@H](CC(C)C)NC(=O)[C@H](CC(C)C)NC(=O)[C@H](CCCCN)NC(=O)CNC(=O)[C@@H](NC(=O)[C@@H](N)CC(C)C)C(C)C)C(C)C)C(C)C)CSSC[C@@H](C(=O)O)NC1=O  log2 fold change (RNA-seq, item: Tmem154; mouse, traumatic brain injury model, frontal cortex and hippocampus; dose not given; baseline: TBI alone): -2.14
C[C@]1(CO)Cc2ncn(-c3ccc(C#N)c(Cl)c3)c2C(=O)O1  urinary sodium excretion Ae(0-24h) (human; 2 mg single dose): 197 mmol
COC(=O)[C@@H]1[C@H]2C[C@H]3c4[nH]c5ccccc5c4CCN3C[C@@H]2CC[C@@H]1O  IC50 (Plasmodium falciparum; GB4): 3.16 µM
COc1cc(Br)cc(Br)c1Oc1cc(Br)cc(Br)c1O  Vmax/Km (glucuronidation; human liver microsomes): 211 ± 99.4 µL/min/mg
CC[C@H](C)[C@@H]1NC(=O)[C@H](Cc2ccc(O)cc2)NC(=O)[C@H](CC(=O)O)NC(=O)CCc2cccc3c2Oc2c(cccc2-3)CCNC(=O)[C@H](CC(=O)O)NC(=O)[C@H](CC(=O)O)NC(=O)[C@H](CCCCN)NC1=O  arthritis score (DBA/1 mice, collagen-induced arthritis; intravenous, 0.5 mg/kg, 5 doses every other day, 22 days; baseline: untreated control): decreased
N=C(N)NCCC[C@H](NC(=O)CCCCCNC(=O)[C@H](CCCNC(=N)N)NC(=O)[C@H](CCCNC(=N)N)NC(=O)CCCCCNC(=O)[C@H](CCCNC(=N)N)NC(=O)[C@H](CCCNC(=N)N)NC(=O)CCCCCNC(=O)[C@H](CCCNC(=N)N)NC(=O)[C@H](CCCNC(=N)N)NC(=O)CCCCCNC(=O)[C@@H](N)CCCNC(=N)N)C(=O)NCCCCCC(=O)NCCC(=O)O  MIC (broth microdilution; ATCC 27853 resistant strain, Mueller-Hinton broth): 192 µM (≈ 366 µg/mL)
C=CCNc1c(O)cc2c(O)c1C[C@@H](C)C[C@H](OC)[C@H](O)[C@@H](C)/C=C(\C)[C@H](OC(N)=O)[C@@H](OC)/C=C\C=C(/C)C(=O)N2  median time to tumour progression (GIST patients; dose not given): 12 weeks

For quick reference, copied from above:
CC(C)(C)[C@]1(O)CCN2C[C@H]3c4ccccc4CCc4cccc(c43)[C@@H]2C1  IC50 (Plasmodium falciparum; 3D7): 3.16 µM
C[N+](C)(C)CCOP(=O)(O)OP(=O)([O-])OC[C@H]1O[C@@H](n2ccc(N)nc2=O)[C@H](O)[C@@H]1O  log2 fold change (binding, MIDAS equilibrium dialysis LC-MS; A2AR-BRIL thermostabilized; concentration not given; baseline: no-protein control): -0.223
